Assay results pooled from the literature.
A part holds a random share of what one study measured. Changes are numbered by the printed parent chain.

Study 1
Target: Histone acetyltransferase KAT6A, both winged helices, GST fusion (KAT6A, Homo sapiens, UniProt Q92794, residues 1-181)
Technique: protein binding microarray
Molecule type: double-stranded DNA, one strand shown
Sample: in vitro
Concentration: not given
Setting: 8-mer, flanks averaged, mean of 2 arrays, mostly near background
Relative to: not given
Reading: higher = stronger binding
Measurement: E-score
Construct (chain): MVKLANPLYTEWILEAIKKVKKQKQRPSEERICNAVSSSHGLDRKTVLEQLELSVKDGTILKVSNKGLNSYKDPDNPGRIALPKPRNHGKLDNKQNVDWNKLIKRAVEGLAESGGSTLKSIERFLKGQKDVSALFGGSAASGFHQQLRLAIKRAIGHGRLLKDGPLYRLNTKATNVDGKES
AAAGTCGG: 0.00292
AGTGACAA: -0.156
ACATGGGT: -0.0208
AGGATCAC: -0.161
TCCTGGAA: -0.217
CGATGTCC: 0.204
ATGGAGGA: -0.114
AGTAGCAC: -0.107
ACGTTCTG: 0.0364

Study 2
Target: CCNA2, cyclin fold, Cln2 fusion (human)
Technique: yeast growth competition, sequencing
Sample: yeast
Setting: strong parent motif
Relative to: not given
Reading: higher = stronger binding
Measurement: normalised enrichment score
Starting sequence: GMNC docking peptide (human); KNAKRNLSSEFAN
F11C: 0.776
N2M: 4.55
R5L: 0.15
A12Y: 4.52
A12I: 4.72
S9L: 5.79

Study 3
Target: RNA binding protein fox-1 homolog 2, RRM domain, GST-SBP tag (RBFOX2, Homo sapiens, UniProt O43251-10, residues 100-194)
Technique: RNA Bind-n-Seq
Molecule type: RNA
Sample: in vitro
Concentration: 365 nM
Setting: natural RNA segment, single round, ends assumed
Relative to: no-protein control
Reading: higher = stronger binding
Measurement: RBNS enrichment (R)
All sequences stand within: GGGAGUUCUACAGUCCGACGAUC … UGGAAUUCUCGGGUGCCAA
Target sequence (chain): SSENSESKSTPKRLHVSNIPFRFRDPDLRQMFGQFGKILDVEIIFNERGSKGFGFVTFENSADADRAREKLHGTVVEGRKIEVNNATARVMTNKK
AGGUCACCAACUCCACAGAUGAAACAGUUCAAUAAUGAGGAAACAGGUGAGCCCUGAAAACACAAAAGGACAGUUCUGUGUUGAAACACCCCAUCCCCUCACGUUCUCAC: 0.419
GCGGCCAGCAGCAGCUCUGCUCAGUCUUUAUUCCCACACCAAAGGGCGAGCAGGUGUGACAUUGGCUAAGGAAGUGUUUCCAGAGUGUGCGUCUCGGGUGACCCUUGCUG: 0.653
UGUGAGAGACUUGUAGGAAUUUUUUUCUUCUCCUAGCGAAGUCAAAGCUCUCUCUGAAUGUACUGUGUGACAAUGCAUCAUGCAUGAACCUUCGGUCAGGGAUGUCGUUG: 0.962
GCUUUACCACAGAGCUGCCAACGUCCUUUCACUGUCUCCACACGAUGGCCCAGUAUCCUUGGUUGUGGAUAGGGUCAUCCCUGGCUCCUCACCCAGCACCCAGCUUAACC: 0.518
AAUUGAGGCAUUUUAGUGGACAAUAUCAUAAUUUCUAUCAUGGAAAGUGUAUUUAAUGUCUGUGUCAUGUAUAUGCCAAAAUUUUAAUCCCCUAUAAAUAAAACAUGUGU: 0.732
ACAUGCUUAUAAAAGACUUUUAAUGAAAUGUUGCCUUUUUAAAAUAAUUAUACUUGCACAUGAAAAUAAAAUAUAAAGUCAAUAAUAGUCCUUGUAGCCCAAUGGGAAUU: 0.933
CCAUGAAGCCAGGCAGGACACAGUGCAGCUUGGGUGACAUCUGACCAUCACAGUACCAGCCACUGGUCACUCUGACCCUGCUUUGCCAAGAGUCCUUUCUCAGACAACUG: 0.35

Mixed results
PhoQ, residues 284 288 289 292 302 303 SLKLQV  fold induction (PhoP, residues 12 14 15 18 19 AWHSL (Escherichia coli, UniProt P23836); Sort-seq, measured: YFP reporter; E. coli; PhoQ-PhoP variant library, together with: 10 µM Mg2+; relative to: high Mg2+ state, higher = stronger signaling): 9.21

For quick reference, copied from above (study 3):
ACAUGCUUAUAAAAGACUUUUAAUGAAAUGUUGCCUUUUUAAAAUAAUUAUACUUGCACAUGAAAAUAAAAUAUAAAGUCAAUAAUAGUCCUUGUAGCCCAAUGGGAAUU: 0.933
CCAUGAAGCCAGGCAGGACACAGUGCAGCUUGGGUGACAUCUGACCAUCACAGUACCAGCCACUGGUCACUCUGACCCUGCUUUGCCAAGAGUCCUUUCUCAGACAACUG: 0.35
